# Measurements gathered from unrelated publications.
# Numbered parts are unrelated; each lists some results of a single study. Substitutions count along the parent as printed.

# Sample 1 — technique: DHFR PCA, deep sequencing; sample: yeast; together with: (+)-ABA 0.0091 µM; relative to: wild-type fitted maximum; direction: higher = stronger binding
# Target: ABI1, truncated, D143A, DHFR fusion (Arabidopsis thaliana)
# Setting: methotrexate growth selection, single substitutions
# Starting sequence: PYL1, truncated, DHFR fusion (Arabidopsis thaliana); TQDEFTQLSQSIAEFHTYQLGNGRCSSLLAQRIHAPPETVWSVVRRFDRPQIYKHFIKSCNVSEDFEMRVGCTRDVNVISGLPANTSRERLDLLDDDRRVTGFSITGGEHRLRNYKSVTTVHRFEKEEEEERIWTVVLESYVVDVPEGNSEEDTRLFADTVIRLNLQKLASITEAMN
Substitution,relative binding score [%]
A35I,0.0258
I57H,-1.67
N165F,-0.866
R99W,73.7
L169V,-2.9
L20S,36.3
Q7F,25.7
I105M,2.77
R111L,-1.35
R111T,-0.953
G107I,-7.05
S27G,52.6
P146N,15
G148V,1
N61V,53.1
G148H,-0.74
R88I,36.9
L8P,-6.68
L20E,30.2
L112M,4.48
L28V,50.8
S87D,4.25
R24D,-1.68

# Sample 2 — target: CCNA1, cyclin fold, Cln2 fusion (human); technique: yeast growth competition, sequencing; sample: yeast; setting: weak parent motif; relative to: not given; direction: higher = stronger binding
# Starting sequence: NPAT docking peptide (human); PCHRRVLCFDSTT; partner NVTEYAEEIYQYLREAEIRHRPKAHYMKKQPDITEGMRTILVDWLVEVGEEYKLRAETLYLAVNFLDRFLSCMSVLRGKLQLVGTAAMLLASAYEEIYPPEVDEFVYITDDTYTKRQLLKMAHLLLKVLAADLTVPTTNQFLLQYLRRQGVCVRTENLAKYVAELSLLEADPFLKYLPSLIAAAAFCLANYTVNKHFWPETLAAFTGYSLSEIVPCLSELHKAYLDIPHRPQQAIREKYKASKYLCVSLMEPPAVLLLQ
Substitution,normalised enrichment score
PCHRKVLCLDSTT [R5K F9L],0.266
PCHRAVACFDSTT [R5A L7A],0.12
ACHRRVLCFDSTT [P1A],-0.213
PCHRRVLCFDATT [S11A],-0.0574
PCHRRVACFDSTT [L7A],0.0311
PAHRRVLCFDSTT [C2A],0.243
PCHRRALCFDSTT [V6A],0.271
PCHRRVLAFDSTT [C8A],0.228
PCHRRVLCLDSTT [F9L],-0.246
PCHRAVLCFDSTT [R5A],0.211

# Sample 3 — technique: protein binding microarray; molecule type: double-stranded DNA, one strand shown; sample: in vitro; tested at: not given; relative to: not given; direction: higher = stronger binding
# Target: Histone acetyltransferase KAT6A, winged helix 1, GST fusion (KAT6A, Homo sapiens, UniProt Q92794, residues 1-85)
# Setting: 8-mer, flanks averaged, mean of 2 arrays, mostly near background
# Residues (chain): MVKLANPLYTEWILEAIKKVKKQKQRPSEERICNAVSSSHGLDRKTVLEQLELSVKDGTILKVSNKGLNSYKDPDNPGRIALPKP
Strand,E-score
GTAAGGAA,-0.223
ACTGACGC,0.169
CCAGACCG,0.134
AACAAGAT,-0.0666
CGCGTAAC,0.381
GGAATGGA,-0.0475
ACCGGGCC,0.229
AAGATCCA,-0.226
ACCCGTGG,0.255
ACCGGTCT,0.0176
GCGACAAC,0.0844
CACCCCAA,-0.234
AAAAATTT,-0.119
CCACCCAG,-0.225
GCCCAAAA,-0.199
ACTAAAAG,-0.111
AATTGCTG,0.0232
CATACTGA,-0.171
TAGAGGCA,-0.224
GTTCATTA,-0.0815
GGCCGCAA,0.262
CGTACGTA,0.189
CCAACTCG,-0.229
ATTGGTTG,-0.201
TGCTACCA,-0.19

# Mixed results
Substance,target,test,test system,conditions,scale,quantity,result
"PhoQ, residues 284 288 289 292 302 303 SSCCRF","PhoP, residues 12 14 15 18 19 GHCSL (Escherichia coli, UniProt P23836)","Sort-seq, refers to: YFP reporter",E. coli,"PhoQ-PhoP variant library, together with: 10 µM Mg2+","relative to: high Mg2+ state, higher = stronger signaling",fold induction,18.4

# Repeated from above (sample 3):
Strand,E-score
GCGACAAC,0.0844
CACCCCAA,-0.234
AAAAATTT,-0.119
